Published values from different studies.
Each line is one published result; not all experiments were run side by side. ± gives the spread as reported.

O=C(O)c1cc(O)c(O)c(O)c1  EC50 (Influenza A virus H1N1 pandemic; viral replication; A549; 72 h): 1 to 5 µg/mL
CCC(CC)O[C@@H]1C=C(C(=O)O)C[C@H](N)[C@H]1NC(C)=O  EC50 (influenza A virus; viral replication, MTS viability; MDCK, H1N1): 13.6 ± 0.1 µM
CCCCCCS(=O)(=O)N[C@H]1C(=O)N[C@@H]2Cc3ccc(c(Cl)c3)Oc3cc4cc(c3O)Oc3ccc(cc3Cl)[C@@H](O[C@@H]3O[C@H](CO)[C@@H](O)[C@H](O)[C@H]3NC(C)=O)[C@H]3NC(=O)[C@H](NC(O)[C@@H]4NC(=O)[C@@H](NC2=O)c2cc(O)cc(c2)Oc2cc1ccc2O)c1ccc(O)c(c1)-c1c(O)cc(O)cc1[C@H](C(=O)O)NC3=O (stereo partly drawn)  EC50 (human coronavirus 229E; viral replication; HEL; 120 h): ~2 µM
O=C(N/N=C1\C(=O)Nc2ccc([N+](=O)[O-])cc21)N/N=C1\C(=O)Nc2ccc([N+](=O)[O-])cc21  EC50 (influenza A virus; cytopathic effect, visual CPE score; MDCK, H1N1): 47 ± 2.5 µM
Cc1cc2c(c(=S)[nH]1)C(=O)O/C2=C\c1cc2ccccc2s1  EC50 (influenza A H1N1, H3N2, influenza B; cytopathic effect; MDCK, A/Puerto Rico/8/34, A/Hong Kong/8/68, B/Lee/40; range over three viruses): < 20 µM
CCOC(=O)C1=C[C@@H](OC(CC)CC)[C@H](NC(C)=O)[C@@H](N)C1  EC50 (influenza A virus H3N2; viral replication; MDCK): 90 ± 21 µM
NC12CC3CC(CC(C3)C1)C2  EC50 (influenza A virus; viral replication, visual CPE score; MDCK, H1N1): 34 ± 0.1 µM
NC12CC3CC(CC(C3)C1)C2  EC50 (Influenza A virus H3N2; viral replication, MTS; MDCK): 0.8 µM
Cc1cc2c(c(=S)[nH]1)C(=O)O/C2=C\c1sccc1C  EC50 (influenza A H1N1, H3N2, influenza B; cytopathic effect; MDCK, A/Puerto Rico/8/34, A/Hong Kong/8/68, B/Lee/40; range over three viruses): < 20 µM
NC12CC3CC(CC(C3)C1)C2  EC50 (Influenza A virus; viral cytopathic effect, visual CPE score; MDCK, H3N2): > 1000 µM
CC(C)C(=O)OC[C@H]1O[C@@](C#N)(c2ccc3c(N)ncnn23)[C@H](O)[C@@H]1O  EC50 (swine acute diarrhea syndrome coronavirus; viral replication; Vero C1008; 48 h): 2.49 µM
Cc1oncc1C(=O)Nc1ccc(C(F)(F)F)cc1  EC50 (human coronavirus 229E; viral replication, qPCR, item: viral RNA; MRC-5; 48 h): 42.7 µM
O=C(N/N=C1\C(=O)Nc2ccc(Cl)cc21)N/N=C1\C(=O)Nc2ccc(Cl)cc21  EC50 (influenza A virus; cytopathic effect, visual CPE score; MDCK, H1N1): > 100 µM
NC(=O)c1ncn([C@@H]2O[C@H](CO)[C@@H](O)[C@H]2O)n1  EC50 (influenza A virus; viral replication, MTS viability; MDCK, H1N1): 10.5 ± 0.65 µM
O=C(N/N=C1\C(=O)Nc2ccccc21)N/N=C1\C(=O)Nc2ccccc21  EC50 (influenza A virus; cytopathic effect, visual CPE score; MDCK, H1N1): > 100 µM
C/C(O)=C(\C#N)C(=O)Nc1ccc(C(F)(F)F)cc1  EC50 (human coronavirus 229E; viral replication, qPCR, item: viral RNA; MRC-5; 48 h): 42.1 µM
CCC(CC)O[C@@H]1C=C(C(=O)O)C[C@H](N)[C@H]1NC(C)=O  EC50 (Influenza A virus; viral cytopathic effect, MTS; MDCK, H3N2): 5.2 µM
NC(=O)c1ncn([C@@H]2O[C@H](CO)[C@@H](O)[C@H]2O)n1  EC50 (influenza A virus; cytopathic effect, MTS; MDCK, H1N1): 2.8 ± 0.25 µM

Repeated from above:
C/C(O)=C(\C#N)C(=O)Nc1ccc(C(F)(F)F)cc1  EC50 (human coronavirus 229E; viral replication, qPCR, item: viral RNA; MRC-5; 48 h): 42.1 µM
CCOC(=O)C1=C[C@@H](OC(CC)CC)[C@H](NC(C)=O)[C@@H](N)C1  EC50 (influenza A virus H3N2; viral replication; MDCK): 90 ± 21 µM
